Experimental data collected from several papers.
Every numbered part comes from another study and shows a few of its results, in no order.
UniProt P51451, sequence (whole entry, looked up): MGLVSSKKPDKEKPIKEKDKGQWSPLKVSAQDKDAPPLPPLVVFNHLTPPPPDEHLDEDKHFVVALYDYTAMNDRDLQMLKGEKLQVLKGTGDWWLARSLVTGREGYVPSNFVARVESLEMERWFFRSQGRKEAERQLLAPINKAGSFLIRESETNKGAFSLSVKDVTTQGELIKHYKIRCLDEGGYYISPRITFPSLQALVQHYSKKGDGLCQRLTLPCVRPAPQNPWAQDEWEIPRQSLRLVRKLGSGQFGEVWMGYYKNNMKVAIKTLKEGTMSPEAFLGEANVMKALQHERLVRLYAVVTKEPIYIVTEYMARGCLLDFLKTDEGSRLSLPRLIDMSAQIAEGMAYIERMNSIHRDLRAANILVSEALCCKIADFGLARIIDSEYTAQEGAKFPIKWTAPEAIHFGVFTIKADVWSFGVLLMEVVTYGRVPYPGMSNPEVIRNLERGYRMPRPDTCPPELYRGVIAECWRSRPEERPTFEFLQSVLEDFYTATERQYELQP
UniProt Q6XUX3, sequence (whole entry, looked up): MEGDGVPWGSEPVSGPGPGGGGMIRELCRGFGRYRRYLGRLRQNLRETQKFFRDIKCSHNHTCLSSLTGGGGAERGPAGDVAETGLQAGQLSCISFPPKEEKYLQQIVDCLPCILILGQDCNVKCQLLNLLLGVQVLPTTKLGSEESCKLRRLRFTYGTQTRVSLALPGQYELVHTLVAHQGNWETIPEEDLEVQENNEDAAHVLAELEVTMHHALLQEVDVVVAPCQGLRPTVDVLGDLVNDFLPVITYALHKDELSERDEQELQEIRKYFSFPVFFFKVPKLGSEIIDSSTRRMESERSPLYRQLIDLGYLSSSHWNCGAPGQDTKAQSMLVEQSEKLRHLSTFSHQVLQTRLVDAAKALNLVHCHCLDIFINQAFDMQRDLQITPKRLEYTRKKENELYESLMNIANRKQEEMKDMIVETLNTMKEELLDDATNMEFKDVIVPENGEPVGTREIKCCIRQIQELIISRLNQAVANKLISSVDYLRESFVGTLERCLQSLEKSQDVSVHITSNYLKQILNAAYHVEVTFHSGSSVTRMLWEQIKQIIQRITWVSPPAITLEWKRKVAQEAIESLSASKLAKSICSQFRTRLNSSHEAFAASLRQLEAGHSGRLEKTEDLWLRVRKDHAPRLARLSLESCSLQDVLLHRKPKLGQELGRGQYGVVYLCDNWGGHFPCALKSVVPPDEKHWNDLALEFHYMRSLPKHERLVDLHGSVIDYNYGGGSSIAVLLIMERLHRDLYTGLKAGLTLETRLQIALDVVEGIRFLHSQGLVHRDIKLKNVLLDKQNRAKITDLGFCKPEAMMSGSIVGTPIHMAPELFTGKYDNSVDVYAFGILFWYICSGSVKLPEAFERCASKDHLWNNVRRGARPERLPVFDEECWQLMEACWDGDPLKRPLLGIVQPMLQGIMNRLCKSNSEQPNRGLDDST
UniProt P10721, sequence (whole entry, unmodified, looked up): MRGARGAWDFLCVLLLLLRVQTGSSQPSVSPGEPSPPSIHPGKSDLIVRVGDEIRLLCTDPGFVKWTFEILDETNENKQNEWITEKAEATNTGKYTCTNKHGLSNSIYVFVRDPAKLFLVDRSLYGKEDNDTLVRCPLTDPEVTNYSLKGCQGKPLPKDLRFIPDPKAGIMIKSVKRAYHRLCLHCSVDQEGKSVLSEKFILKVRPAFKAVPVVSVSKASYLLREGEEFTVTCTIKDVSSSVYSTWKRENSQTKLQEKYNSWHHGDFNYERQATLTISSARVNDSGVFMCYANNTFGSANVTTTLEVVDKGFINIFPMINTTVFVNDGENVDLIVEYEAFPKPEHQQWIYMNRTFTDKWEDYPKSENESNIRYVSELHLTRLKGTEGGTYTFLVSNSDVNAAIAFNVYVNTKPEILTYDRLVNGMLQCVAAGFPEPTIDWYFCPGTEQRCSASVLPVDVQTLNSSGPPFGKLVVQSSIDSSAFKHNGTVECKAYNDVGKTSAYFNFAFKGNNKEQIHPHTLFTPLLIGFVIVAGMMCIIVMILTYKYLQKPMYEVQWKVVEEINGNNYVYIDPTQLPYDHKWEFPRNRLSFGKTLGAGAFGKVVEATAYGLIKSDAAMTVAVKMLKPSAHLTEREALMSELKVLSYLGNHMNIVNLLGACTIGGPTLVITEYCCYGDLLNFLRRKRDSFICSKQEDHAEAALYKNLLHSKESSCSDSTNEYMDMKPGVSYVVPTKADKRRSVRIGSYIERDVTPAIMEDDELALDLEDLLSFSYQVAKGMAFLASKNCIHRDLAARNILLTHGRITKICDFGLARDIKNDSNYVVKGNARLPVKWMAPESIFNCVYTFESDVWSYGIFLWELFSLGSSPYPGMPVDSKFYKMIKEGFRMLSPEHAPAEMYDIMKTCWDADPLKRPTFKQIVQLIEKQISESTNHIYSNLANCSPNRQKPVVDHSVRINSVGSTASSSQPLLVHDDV
UniProt O14965, sequence (whole entry, looked up): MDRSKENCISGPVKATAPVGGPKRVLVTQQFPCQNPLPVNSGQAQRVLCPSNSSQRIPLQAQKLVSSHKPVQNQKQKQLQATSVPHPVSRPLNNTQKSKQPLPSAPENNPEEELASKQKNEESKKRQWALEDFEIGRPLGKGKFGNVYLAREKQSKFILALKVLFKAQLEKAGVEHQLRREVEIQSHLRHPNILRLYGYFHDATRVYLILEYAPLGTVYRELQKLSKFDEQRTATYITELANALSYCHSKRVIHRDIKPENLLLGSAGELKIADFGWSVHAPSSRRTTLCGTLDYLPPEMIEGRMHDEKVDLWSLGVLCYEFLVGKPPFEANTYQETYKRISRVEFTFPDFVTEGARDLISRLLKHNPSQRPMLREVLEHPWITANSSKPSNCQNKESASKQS
UniProt Q9HBY8, sequence (whole entry, looked up): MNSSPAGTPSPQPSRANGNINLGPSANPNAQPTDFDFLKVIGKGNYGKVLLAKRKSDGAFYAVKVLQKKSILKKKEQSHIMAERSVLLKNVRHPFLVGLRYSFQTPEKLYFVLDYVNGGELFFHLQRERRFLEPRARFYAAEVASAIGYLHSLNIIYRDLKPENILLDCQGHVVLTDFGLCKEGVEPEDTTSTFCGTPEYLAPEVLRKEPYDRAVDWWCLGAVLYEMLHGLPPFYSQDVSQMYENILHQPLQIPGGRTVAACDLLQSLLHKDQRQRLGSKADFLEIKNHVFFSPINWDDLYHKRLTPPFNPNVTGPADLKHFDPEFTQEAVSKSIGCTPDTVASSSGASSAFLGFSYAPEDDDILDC

Study 1 — read-out: enzyme activity; mode: inhibitor; concentration: 10 µM; measurement: inhibition
Target: Calcium/calmodulin-dependent protein kinase type II subunit alpha (CAMK2A, Homo sapiens, UniProt Q9UQM7)
UniProt Q9UQM7, sequence (whole entry, looked up): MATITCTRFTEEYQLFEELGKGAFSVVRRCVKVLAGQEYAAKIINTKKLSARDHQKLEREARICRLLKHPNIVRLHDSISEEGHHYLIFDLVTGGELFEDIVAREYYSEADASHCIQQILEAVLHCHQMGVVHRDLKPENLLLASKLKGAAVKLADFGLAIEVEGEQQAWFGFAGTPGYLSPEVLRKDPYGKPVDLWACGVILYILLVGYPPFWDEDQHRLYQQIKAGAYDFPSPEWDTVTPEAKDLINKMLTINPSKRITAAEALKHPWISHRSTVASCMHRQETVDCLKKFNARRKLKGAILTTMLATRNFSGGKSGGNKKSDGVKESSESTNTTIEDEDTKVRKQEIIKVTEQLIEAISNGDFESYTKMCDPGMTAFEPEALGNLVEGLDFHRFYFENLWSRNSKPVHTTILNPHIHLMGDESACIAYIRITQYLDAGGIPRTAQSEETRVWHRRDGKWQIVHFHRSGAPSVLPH
CC(=O)O[C@@H](C[C@@H](C)C1=C2C[C@H](O)[C@H]3[C@@]4(C)CCC(=O)C(C)(C)[C@@H]4CC[C@]3(C)[C@@]2(C)CC1=O)[C@H]1OC1(C)C: -28%
C[C@@H](O)[C@H]1C(=O)N2C(C(=O)O)=C(S[C@@H]3CN[C@H](C(=O)N(C)C)C3)[C@H](C)[C@H]12: -20%
CONC(=O)Nc1ccc(-c2sc3c(c2CN(C)C)c(=O)n(-c2ccc(OC)nn2)c(=O)n3Cc2c(F)cccc2F)cc1: -11%
CC1=C(/C=C/C(C)=C/C=C/C(C)=C/C=C/C=C(C)/C=C/C=C(\C)C=O)C(C)(C)CCC1: -57%
CC/C=C\C/C=C\C/C=C\CCCCCCCC(=O)O: -16%
O=C(O)/C=C/CCCCCCCO: 0%
O=C(O)C[C@H](O)C(=O)O: -3%
NCCCC[C@H](NC(=O)[C@@H]1CCCN1C(=O)[C@@H]1CSSC[C@H](NC(=O)CNC(=O)CNC(=O)CN)C(=O)N[C@@H](Cc2ccc(O)cc2)C(=O)N[C@@H](Cc2ccccc2)C(=O)N[C@@H](CCC(N)=O)C(=O)N[C@@H](CC(N)=O)C(=O)N1)C(=O)NCC(N)=O: -11%
N=C(N)NCCCCN: -5%
Cc1ccccc1C(=O)NCC(=O)O: 5%

Study 2 — cell line: Huh-7; concentration: 10 µM; time: 24 h; measurement: viability
CN/C(=N/CCSCc1nc[nH]c1C)NC#N: 103%
N[C@@H](Cc1c[nH]c2ccccc12)C(=O)O: 103%
CC1CCc2cc(F)cc3c(=O)c(C(=O)O)cn1c23 (centres unmarked): 102%
CCCCNc1ccc(C(=O)OCCN(C)C)cc1: 101%
CCCOc1ccc(C(=O)OCCN(CC)CC)cc1N: 98.9%
O=C1C(O)=C(O)C(=O)C(O)=C1O: 94.6%
C1CCN2C[C@@H]3C[C@@H](CN4CCCC[C@@H]34)[C@H]2C1: 98.4%
O=C1NC(=O)C(c2ccccc2)(c2ccccc2)N1: 96.9%
CC(CCc1ccccc1)NCC(O)c1ccc(O)c(C(N)=O)c1 (centres unmarked): 97%
CC(=O)NCCCS(=O)(=O)O: 100%
C[C@]12C=CC(=O)C=C1CC[C@@H]1[C@@H]2C(=O)C[C@@]2(C)[C@H]1CC[C@]2(O)C(=O)CO: 99.2%
Cc1nnc(NS(=O)(=O)c2ccc(N)cc2)s1: 101%
Nc1nc(/C(=C/CC(=O)O)C(=O)N[C@@H]2C(=O)N3C(C(=O)O)=CCS[C@H]23)cs1: 97.3%
COCCCC/C(=N\OCCN)c1ccc(C(F)(F)F)cc1: 99%
NC(=O)NC1NC(=O)NC1=O (centres unmarked): 91.9%

Study 3 — concentration: 1 µM; measurement: remaining binding
Compound: C[C@@]1(Cc2ccc(C#N)cc2)C(=O)N(c2cc(Cl)cc(Cl)c2)c2ncc(C(=O)NC3(c4nc(C5CCC5)no4)CC3)n21
SGK2 (Homo sapiens, UniProt Q9HBY8); cell-free assay, competition with immobilised ligand: 100%
KIT (Homo sapiens, UniProt P10721, D816H); cell-free assay, competition with immobilised ligand: 100%
CAMKK2 (Homo sapiens, UniProt Q96RR4); cell-free assay, competition with immobilised ligand: 100%
RIPK4 (Homo sapiens, UniProt P57078); cell-free assay, competition with immobilised ligand: 100%
DSTYK (Homo sapiens, UniProt Q6XUX3); cell-free assay, competition with immobilised ligand: 95%
CDK2 (Homo sapiens, UniProt P24941); cell-free assay, competition with immobilised ligand: 100%
STK32A (Homo sapiens, UniProt Q8WU08); cell-free assay, competition with immobilised ligand: 100%
EPHB2 (Homo sapiens, UniProt P29323); cell-free assay, competition with immobilised ligand: 94%
EGFR (Homo sapiens, UniProt P00533, A750P/del747-749); cell-free assay, competition with immobilised ligand: 100%
BLK (Homo sapiens, UniProt P51451); cell-free assay, competition with immobilised ligand: 100%
EIF2AK2 (Homo sapiens, UniProt P19525); cell-free assay, competition with immobilised ligand: 56%
Macrophage colony-stimulating factor 1 receptor, autoinhibited (CSF1R, Homo sapiens, UniProt P07333); cell-free assay, competition with immobilised ligand: 100%
Aurora kinase A (AURKA, Homo sapiens, UniProt O14965); cell-free assay, competition with immobilised ligand: 92%
PDGFRB (Homo sapiens, UniProt P09619); cell-free assay, competition with immobilised ligand: 100%
EPHA1 (Homo sapiens, UniProt P21709); cell-free assay, competition with immobilised ligand: 100%
RET (Homo sapiens, UniProt P07949, M918T); cell-free assay, competition with immobilised ligand: 100%
STK39 (Homo sapiens, UniProt Q9UEW8); cell-free assay, competition with immobilised ligand: 91%
SIK1 (Homo sapiens, UniProt P57059); competition binding: 100%
CAMK2D (Homo sapiens, UniProt Q13557); cell-free assay, competition with immobilised ligand: 100%
ERBB4 (Homo sapiens, UniProt Q15303); cell-free assay, competition with immobilised ligand: 100%
TNNI3K (Homo sapiens, UniProt Q59H18); cell-free assay, competition with immobilised ligand: 72%

Study 4 — read-out: enzyme activity; mode: inhibitor; concentration: 0.5 µM; relative to: control; measurement: remaining activity
Target: Insulin receptor (INSR, Homo sapiens, UniProt P06213)
UniProt P06213, sequence (whole entry, looked up): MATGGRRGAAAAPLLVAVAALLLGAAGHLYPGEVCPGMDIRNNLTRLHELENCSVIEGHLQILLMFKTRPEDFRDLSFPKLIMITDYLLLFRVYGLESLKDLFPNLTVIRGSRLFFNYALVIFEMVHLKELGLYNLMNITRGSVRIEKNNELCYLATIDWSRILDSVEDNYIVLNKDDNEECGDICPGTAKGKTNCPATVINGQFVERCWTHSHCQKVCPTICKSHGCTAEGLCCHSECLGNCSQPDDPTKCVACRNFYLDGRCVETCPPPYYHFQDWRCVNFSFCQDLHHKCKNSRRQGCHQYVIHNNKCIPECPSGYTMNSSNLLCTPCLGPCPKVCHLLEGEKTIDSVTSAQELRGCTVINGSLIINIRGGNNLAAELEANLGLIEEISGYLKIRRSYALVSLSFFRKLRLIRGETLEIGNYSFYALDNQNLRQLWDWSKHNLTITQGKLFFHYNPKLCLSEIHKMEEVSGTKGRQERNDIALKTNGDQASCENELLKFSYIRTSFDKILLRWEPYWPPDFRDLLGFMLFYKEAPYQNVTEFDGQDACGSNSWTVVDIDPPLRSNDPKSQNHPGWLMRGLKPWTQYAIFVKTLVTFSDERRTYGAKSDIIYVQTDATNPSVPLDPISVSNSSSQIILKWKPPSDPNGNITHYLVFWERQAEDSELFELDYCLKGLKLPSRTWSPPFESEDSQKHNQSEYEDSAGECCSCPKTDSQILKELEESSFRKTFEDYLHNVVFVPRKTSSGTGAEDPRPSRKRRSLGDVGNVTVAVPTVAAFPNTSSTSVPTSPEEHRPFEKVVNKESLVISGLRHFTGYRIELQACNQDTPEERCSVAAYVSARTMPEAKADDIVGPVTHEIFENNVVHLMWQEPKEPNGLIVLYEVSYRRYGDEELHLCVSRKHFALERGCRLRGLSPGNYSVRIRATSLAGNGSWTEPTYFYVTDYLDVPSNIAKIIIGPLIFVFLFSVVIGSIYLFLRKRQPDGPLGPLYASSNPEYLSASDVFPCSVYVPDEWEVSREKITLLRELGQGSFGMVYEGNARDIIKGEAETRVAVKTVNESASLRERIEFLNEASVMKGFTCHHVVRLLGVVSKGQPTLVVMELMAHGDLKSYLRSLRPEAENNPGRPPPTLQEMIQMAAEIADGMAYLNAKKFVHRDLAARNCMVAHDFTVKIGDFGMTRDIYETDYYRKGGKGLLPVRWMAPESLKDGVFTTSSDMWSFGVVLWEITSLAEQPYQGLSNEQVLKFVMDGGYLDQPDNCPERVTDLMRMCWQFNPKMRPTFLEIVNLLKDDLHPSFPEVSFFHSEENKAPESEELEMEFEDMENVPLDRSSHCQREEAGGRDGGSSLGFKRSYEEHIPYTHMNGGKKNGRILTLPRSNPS
O=c1c(-c2ccc(F)cc2)c(-c2ccncc2)[nH]n1-c1ccc(Cl)cc1: 110%
CC(C)(C)c1nc2c3cc[nH]c(=O)c3c3cc(F)ccc3c2[nH]1: 80.6%
N#C/C(=C(/N)SC1C=CC=CC1)c1cccc(C(O)c2ccncc2)c1 (centres unmarked): 105%
CNc1cc2c(Nc3cccc(Br)c3)ncnc2cn1: 100%
FC(F)(F)c1ccc(/C=C/c2nc(COc3ccc(CCCCn4ccnn4)cc3)co2)cc1: 99.6%
O=C1c2ccccc2-c2nc3nnnn3nc21: 32.3%
CCCCc1c(-c2ccc(O)cc2)[nH]c2nccnc12: 99.6%
O=C(O)/C=C/c1cc(Br)c(Br)c(Br)c1Br: 98.6%
CC(C)n1cnc2c(Nc3cccc(Cl)c3)nc(NCCO)nc21: 97.3%
C[C@@H](N)[C@H]1CC[C@H](C(=O)Nc2ccncc2)CC1: 94.4%
CCN(CC)CCCCN1c2ccccc2Oc2ccc(Cl)cc21: 109%
COc1cc2c(N3CCN(C(=O)Nc4ccc(OC(C)C)cc4)CC3)ncnc2cc1OCCCN1CCCCC1: 99.3%
NC(=O)c1ccc(-c2nc(-c3ccc4c(c3)OCCO4)c(-c3ccccn3)[nH]2)cc1: 96.3%
CC(C)N(CCC(=O)c1ccc2ccccc2c1)Cc1ccccc1: 107%
NC(=O)c1cccc(-c2cc(Nc3ccc(OC(F)(F)F)cc3)ncn2)c1: 105%
O=C(c1ccccc1)c1ccc(N2CCOCC2)cc1O: 92.9%
O=C1NC(=O)/C(=C/c2ccc3c(c2)OC(F)(F)O3)S1: 106%
Clc1ccc(Nc2nnc(Cc3ccncc3)c3ccccc23)cc1: 99.9%
c1cc(-c2cnn3cc(-c4ccc(OCCN5CCCCC5)cc4)cnc23)ccn1: 94.9%

A few entries again (study 4):
O=C1c2ccccc2-c2nc3nnnn3nc21: 32.3%
NC(=O)c1cccc(-c2cc(Nc3ccc(OC(F)(F)F)cc3)ncn2)c1: 105%
CC(C)(C)c1nc2c3cc[nH]c(=O)c3c3cc(F)ccc3c2[nH]1: 80.6%
O=C(O)/C=C/c1cc(Br)c(Br)c(Br)c1Br: 98.6%
O=C1NC(=O)/C(=C/c2ccc3c(c2)OC(F)(F)O3)S1: 106%
CCCCc1c(-c2ccc(O)cc2)[nH]c2nccnc12: 99.6%
C[C@@H](N)[C@H]1CC[C@H](C(=O)Nc2ccncc2)CC1: 94.4%
FC(F)(F)c1ccc(/C=C/c2nc(COc3ccc(CCCCn4ccnn4)cc3)co2)cc1: 99.6%
CC(C)N(CCC(=O)c1ccc2ccccc2c1)Cc1ccccc1: 107%
Clc1ccc(Nc2nnc(Cc3ccncc3)c3ccccc23)cc1: 99.9%
